Measured values of several laboratories.
Protocols differ between the studies behind these lines. “And” joins repeats or separate records; there may be more than shown. Numbers after ± are the reported error.

SMILES = CN1Cc2cc(Cl)ccc2-n2c(nnc2C2CCN(c3cccc([18F])n3)CC2)C1; system = C57BL/6 mouse male, liver; setting = intravenous, dose not given, 30 min, added: blocking agent 10 mg/kg; endpoint = tissue uptake; value = 12 ± 2.96 %ID/g
SMILES = CC[C@H](C)[C@H](NC(=O)[C@H](CCCNC(=N)N)NC(=O)[C@H](CCCCN)NC(=O)[C@H](Cc1ccc(O)cc1)NC(=O)[C@H](CC(=O)O)NC(=O)[C@H](C)NC(=O)CNC(=O)CCOCCOCCOCCNC(=O)CN1CCN(CC(=O)O)CCN(CC(=O)O)CCN(CC(=O)O)CC1)C(=O)N[C@H](C(=O)N[C@H](C(=O)N[C@@H](CCCCN)C(=O)N[C@H](C(=O)N[C@@H](CC(N)=O)C(N)=O)C(C)C)C(C)C)[C@@H](C)O [copper-64 labelled]; assay = ex vivo gamma counting; system = male C57BL/6J mouse, B16-F10 tumour, B16-F10 tumour; setting = intravenous, 1.85 MBq, 5 min; endpoint = tissue uptake; value = 3.37 ± 0.867 %ID/g
SMILES = CC[C@H](C)[C@H](NC(=O)[C@@H](Cc1c[nH]c2ccccc12)NC(=O)[C@@H]1CCCN1C(=O)[C@H](CCCCN)NC(=O)[C@H](CCCCN)NC(=O)CCNC(=O)CCNC(=O)CN1CCN(CC(=O)O)CCN(CC(=O)O)CCN(CC(=O)O)CC1)C(=O)N[C@@H](C[Si](C)(C)C)C(=O)O [gallium-68 labelled]; system = nude mouse HT-29 xenograft, bone; setting = 90 min; endpoint = tissue uptake; value = 0.35 ± 0.26 %ID/g
SMILES = O=C1NC2(CC2)COc2ncc(F)cc2[C@H]2COCCN2c2ccn3ncc1c3n2; system = Sprague-Dawley rat, male, liver; setting = oral, 2.5 mg/kg/day, 4 weeks, end of treatment; endpoint = organ-to-body weight ratio; value = 3.12 ± 0.132%
SMILES = CC[C@H](C)[C@H](NC(=O)[C@H](CCCNC(=N)N)NC(=O)[C@H](CCCCN)NC(=O)[C@H](Cc1ccc(O)cc1)NC(=O)[C@H](CC(=O)O)NC(=O)[C@H](C)NC(=O)CNC(=O)CCOCCOCCOCCNC(=O)CN1CCN(CC(=O)O)CCN(CC(=O)O)CCN(CC(=O)O)CC1)C(=O)N[C@H](C(=O)N[C@@H](CC(C)C)C(=O)N[C@@H](CCCCN)C(=O)N[C@H](C(=O)N[C@@H](CC(N)=O)C(N)=O)C(C)C)[C@@H](C)O [copper-64 labelled]; system = C57BL/6J mouse male, B16-F10 tumour, small intestine; setting = intravenous, 1.85 MBq, 20 min, 67Ga complex; endpoint = tissue uptake; value = 1.55 ± 0.683 %ID/g
SMILES = CSCC[C@H](NC(=O)CNC(=O)[C@H](CCCCN)NC(=O)[C@H](CC(C)C)NC(=O)[C@@H]1CCCN1C(=O)[C@H](CO)NC(=O)[C@H](Cc1c[nH]cn1)NC(=O)[C@H](Cc1c[nH]c2ccccc12)NC(=O)[C@H](CCCNC(=N)N)NC(=O)[C@H](CC(C)C)NC(=O)[C@H](CCCNC(=N)N)NC(=O)[C@H](Cc1c[nH]c2ccccc12)NC(=O)[C@H](CS)NC(=O)CCCCCNC(=O)CN1CCN(CC(=O)O)CCN(CC(=O)O)CCN(CC(=O)O)CC1)C(=O)O [copper-64 labelled]; system = BALB/c nude mouse, Huh-7 tumour, small intestine; setting = intravenous, 6 h, ex vivo biodistribution; endpoint = tissue uptake; value = 3.78 %ID/g
SMILES = CSCC[C@H](N)C(=O)N[C@@H](C)C(=O)N[C@@H](CCCNC(=N)N)C(=O)N[C@@H](CCCNC(=N)N)C(=O)N[C@@H](CC(=O)O)C(=O)N[C@@H](CCCCN)C(=O)N[C@H](C(=O)N[C@@H](CC(=O)O)C(=O)N[C@@H](Cc1ccccc1)C(=O)N[C@@H](C)C(=O)N[C@@H](CCCNC(=N)N)C(=O)N[C@@H](CCCNC(=N)N)C(=O)N[C@@H](CCCNC(=N)N)C(=O)N[C@@H](CCCNC(=N)N)C(=O)NCCCCCC(=O)NCCCCC(NC(=O)CCCCCNC(=O)[C@H](CCCNC(=N)N)NC(=O)[C@H](CCCNC(=N)N)NC(=O)[C@H](CCCNC(=N)N)NC(=O)[C@H](CCCNC(=N)N)NC(=O)[C@H](C)NC(=O)[C@H](Cc1ccccc1)NC(=O)[C@H](CC(=O)O)NC(=O)[C@@H](NC(=O)[C@H](CCCCN)NC(=O)[C@H](CC(=O)O)NC(=O)[C@H](CCCNC(=N)N)NC(=O)[C@H](CCCNC(=N)N)NC(=O)[C@H](C)NC(=O)[C@@H](N)CCSC)[C@@H](C)O)C(=O)NCCCCC(NC(=O)C(CCCCNC(=O)CCCCCNC(=O)[C@H](CCCNC(=N)N)NC(=O)[C@H](CCCNC(=N)N)NC(=O)[C@H](CCCNC(=N)N)NC(=O)[C@H](CCCNC(=N)N)NC(=O)[C@H](C)NC(=O)[C@H](Cc1ccccc1)NC(=O)[C@H](CC(=O)O)NC(=O)[C@@H](NC(=O)[C@H](CCCCN)NC(=O)[C@H](CC(=O)O)NC(=O)[C@H](CCCNC(=N)N)NC(=O)[C@H](CCCNC(=N)N)NC(=O)[C@H](C)NC(=O)[C@@H](N)CCSC)[C@@H](C)O)NC(=O)CCCCCNC(=O)[C@H](CCCNC(=N)N)NC(=O)[C@H](CCCNC(=N)N)NC(=O)[C@H](CCCNC(=N)N)NC(=O)[C@H](CCCNC(=N)N)NC(=O)[C@H](C)NC(=O)[C@H](Cc1ccccc1)NC(=O)[C@H](CC(=O)O)NC(=O)[C@@H](NC(=O)[C@H](CCCCN)NC(=O)[C@H](CC(=O)O)NC(=O)[C@H](CCCNC(=N)N)NC(=O)[C@H](CCCNC(=N)N)NC(=O)[C@H](C)NC(=O)[C@@H](N)CCSC)[C@@H](C)O)C(N)=O)[C@@H](C)O (stereo partly shown); system = C57BL/6 mouse female, pancreas; setting = dose not given, 6 h; how to read = reference: total; endpoint = tissue distribution; value = 0.52% and 1% and 1.29%
SMILES = CC[C@H](C)[C@H](NC(=O)[C@H](CCCCN)NC(=O)CNC(=O)[C@H](CC(C)C)NC(=O)[C@H](Cc1ccccc1)NC(=O)[C@H](CCCCN)NC(=O)[C@H](CO)NC(=O)[C@H](Cc1ccccc1)NC(=O)[C@H](Cc1c[nH]c2ccccc12)NC(=O)[C@H](CCC(N)=O)NC(=O)[C@@H](NC(=O)[C@H](Cc1ccccc1)NC(=O)CCCCCNC(=O)CN1CCN(CC(=O)O)CCN(CC(=O)O)CCN(CC(=O)O)CC1)C(C)C)C(=O)N[C@@H](CCC(=O)O)C(=O)N1CCC[C@H]1C(=O)N[C@@H](CC(=O)O)C(=O)N[C@H](C(=O)N[C@@H](CO)C(=O)N[C@@H](CCC(N)=O)C(=O)N[C@H](C(=O)N[C@@H](CCC(N)=O)C(=O)N[C@@H](CC(=O)O)C(=O)N1CCC[C@H]1C(=O)N[C@@H](CC(N)=O)C(=O)N[C@@H](CC(=O)O)C(=O)N[C@@H](CCC(N)=O)C(=O)N[C@@H](Cc1ccc(O)cc1)C(=O)N[C@@H](CCC(=O)O)C(=O)N1CCC[C@H]1C(=O)N[C@@H](Cc1ccccc1)C(=O)O)C(C)C)C(C)C [copper-64 labelled]; system = C57BL/6 male mouse, tumour-naive, thymus; setting = 24 h; endpoint = tissue uptake; value = 2.67 ± 0.4 %ID/g
SMILES = C[C@H](O)[C@@H](NC(=O)[C@H]1CCCN1C(=O)[C@@H](CCCCN)NC(=O)[C@@H](CO)NC(=O)[C@@H](Cc1ccc(O)cc1)NC(=O)[C@@H](CC(N)=O)NC(=O)CCOCCOCCOCCNC(=O)CN1CCN(CC(=O)O)CCN(CC(=O)O)CCN(CC(=O)O)CC1)C(=O)N[C@H](CC(=O)O)C(=O)N[C@H](CCCNC(=N)N)C(=O)N[C@H](CCC(N)=O)C(=O)N[C@H](Cc1ccc(O)cc1)C(=O)N[C@H](Cc1c[nH]cn1)C(=O)N[C@H](Cc1ccccc1)C(N)=O [copper-64 labelled]; assay = ex vivo gamma counting; system = C57BL/6J mouse, normal, small intestine; setting = intravenous, 1.85 MBq, 40 min; endpoint = tissue uptake; value = 1.32 ± 0.23 %ID/g
SMILES = CSCC[C@H](N)C(=O)N[C@@H](C)C(=O)N[C@@H](Cc1c[nH]c2ccccc12)C(=O)N[C@@H](Cc1c[nH]cn1)C(=O)N[C@@H](CC(=O)O)C(=O)N[C@@H](CC(=O)O)C(=O)N[C@@H](CCC(=O)O)C(=O)N[C@@H](CCC(=O)O)C(=O)N[C@@H](Cc1ccccc1)C(=O)N[C@@H](C)C(=O)N[C@@H](CCCNC(=N)N)C(=O)N[C@@H](CCCNC(=N)N)C(=O)N[C@@H](CCCNC(=N)N)C(=O)N[C@@H](CCCNC(=N)N)C(=O)NCCCCCC(=O)NCCCCC(NC(=O)CCCCCNC(=O)[C@H](CCCNC(=N)N)NC(=O)[C@H](CCCNC(=N)N)NC(=O)[C@H](CCCNC(=N)N)NC(=O)[C@H](CCCNC(=N)N)NC(=O)[C@H](C)NC(=O)[C@H](Cc1ccccc1)NC(=O)[C@H](CCC(=O)O)NC(=O)[C@H](CCC(=O)O)NC(=O)[C@H](CC(=O)O)NC(=O)[C@H](CC(=O)O)NC(=O)[C@H](Cc1c[nH]cn1)NC(=O)[C@H](Cc1c[nH]c2ccccc12)NC(=O)[C@H](C)NC(=O)[C@@H](N)CCSC)C(=O)NCCCCC(NC(=O)C(CCCCNC(=O)CCCCCNC(=O)[C@H](CCCNC(=N)N)NC(=O)[C@H](CCCNC(=N)N)NC(=O)[C@H](CCCNC(=N)N)NC(=O)[C@H](CCCNC(=N)N)NC(=O)[C@H](C)NC(=O)[C@H](Cc1ccccc1)NC(=O)[C@H](CCC(=O)O)NC(=O)[C@H](CCC(=O)O)NC(=O)[C@H](CC(=O)O)NC(=O)[C@H](CC(=O)O)NC(=O)[C@H](Cc1c[nH]cn1)NC(=O)[C@H](Cc1c[nH]c2ccccc12)NC(=O)[C@H](C)NC(=O)[C@@H](N)CCSC)NC(=O)CCCCCNC(=O)[C@H](CCCNC(=N)N)NC(=O)[C@H](CCCNC(=N)N)NC(=O)[C@H](CCCNC(=N)N)NC(=O)[C@H](CCCNC(=N)N)NC(=O)[C@H](C)NC(=O)[C@H](Cc1ccccc1)NC(=O)[C@H](CCC(=O)O)NC(=O)[C@H](CCC(=O)O)NC(=O)[C@H](CC(=O)O)NC(=O)[C@H](CC(=O)O)NC(=O)[C@H](Cc1c[nH]cn1)NC(=O)[C@H](Cc1c[nH]c2ccccc12)NC(=O)[C@H](C)NC(=O)[C@@H](N)CCSC)C(N)=O (stereo partly shown); system = C57BL/6 mouse female, brain; setting = dose not given, 6 h; how to read = reference: total; endpoint = tissue distribution; value = 0.47% and 1.01%

Some of these lines once more:
SMILES = CSCC[C@H](NC(=O)CNC(=O)[C@H](CCCCN)NC(=O)[C@H](CC(C)C)NC(=O)[C@@H]1CCCN1C(=O)[C@H](CO)NC(=O)[C@H](Cc1c[nH]cn1)NC(=O)[C@H](Cc1c[nH]c2ccccc12)NC(=O)[C@H](CCCNC(=N)N)NC(=O)[C@H](CC(C)C)NC(=O)[C@H](CCCNC(=N)N)NC(=O)[C@H](Cc1c[nH]c2ccccc12)NC(=O)[C@H](CS)NC(=O)CCCCCNC(=O)CN1CCN(CC(=O)O)CCN(CC(=O)O)CCN(CC(=O)O)CC1)C(=O)O [copper-64 labelled]; system = BALB/c nude mouse, Huh-7 tumour, small intestine; setting = intravenous, 6 h, ex vivo biodistribution; endpoint = tissue uptake; value = 3.78 %ID/g
